Measured values collected from several papers.
Each line is one published result; not all experiments were run side by side. “And” joins repeats or separate records; there may be more than shown. ± gives the spread as reported.

Structure (SMILES) | tested on | assay | test system | setting | scale | endpoint | value
Cl.OCCNc1nc(Nc2ccccc2)nc2ccccc12 | Renilla luciferase reporter mRNA | in vitro translation, inhibitor | Trypanosoma cruzi translation extract | 10 µM | – | inhibition | 63.1%
N#Cc1cccc(Nc2nc3cc(C(=O)O)ccc3c3cncnc23)c1 | DYRK and HIPK kinases | enzyme activity, inhibitor, eight-kinase enzymatic panel | – | 1 µM, percent of control below 10 | – | number of kinases inhibited | 3
Fc1ccccc1Nc1nc(NCC2CCCO2)c2ccccc2n1 (stereo not shown) | Renilla luciferase reporter mRNA | in vitro translation, inhibitor | Trypanosoma cruzi translation extract | 10 µM | – | inhibition | 8.8%
CN(C)c1ncnc2nc[nH]c12 | THP-1 | pyroptotic LDH release | – | 2 µM, 40 min, together with: LPS then nigericin | – | inhibition | 7.15%
C[n+]1cccc2cc(C=NNC(=O)c3ccc4ccc5ccc(C(=O)NN=Cc6ccc7c(ccc[n+]7C)c6)nc5c4n3)ccc21.[I-].[I-] | myc22 MYC G4-DNA parallel | FRET melting | – | 1 µM, K1 buffer, DNA 0.2 µM | – | ΔTm | 29.3 ± 1 °C
COc1cccc(CCNc2nc3cc(C(=O)O)ccc3c3cncnc23)c1 | DYRK and HIPK kinases | enzyme activity, inhibitor, eight-kinase enzymatic panel | – | 1 µM, percent of control below 10 | – | number of kinases inhibited | 0
Cc1ccc(C(=O)Nc2ccc(Oc3cc4cnn(C)c4cc3-c3cn[nH]c3)c(F)c2)c(=O)n1-c1ccc(F)cc1 | THP-1 | pyroptotic LDH release | – | 2 µM, 40 min, together with: LPS then nigericin | – | inhibition | 26.9%
COc1cccc(Nc2nc(NCC3CCCO3)c3ccccc3n2)c1.Cl (stereo not shown) | Renilla luciferase reporter mRNA | in vitro translation, inhibitor | Trypanosoma cruzi translation extract | 20 µM | – | inhibition | 55.3%
CC(Nc1nc(N2CCCC2)nc2ccccc12)c1ccccc1 (stereo not shown) | transportin-1/2 | FUS nuclear import, high content imaging | HeLa Kyoto reporter | 5 µM, 2 h | – | cells with nuclear reporter | 95.1%
CCNC(=O)/C=C/c1cccc(Br)c1 | endogenous leucine transporters hamster | inhibitor, L-[14C]leucine uptake | CHO-BC cells | 100 µM, sodium-free | – | L-leucine uptake | 38.1 nmol/6 min/mg protein and 39.2 nmol/6 min/mg protein and 36.7 nmol/6 min/mg protein
O=C(NN=Cc1ccc(C[n+]2ccccc2)cc1)c1ccc2ccc3ccc(C(=O)NN=Cc4ccc(C[n+]5ccccc5)cc4)nc3c2n1.[Br-].[Br-] | myc22 MYC G4-DNA parallel | FRET melting | – | 1 µM, K1 buffer, DNA 0.2 µM, together with: ds26 10 µM | – | ΔTm | 30.5 ± 0.1 °C
O=C(O)c1ccc2c(c1)nc(Nc1ccccc1Cl)c1ncncc12 | DYRK and HIPK kinases | enzyme activity, inhibitor, eight-kinase enzymatic panel | – | 1 µM, percent of control below 10 | – | number of kinases inhibited | 2
c1coc(-c2n[nH]cc2-c2ccnc3ccccc23)c1 | IRE1 (Candida albicans) | kinase binding, MIB/MS competition | Candida albicans lysate | 10 µM | reference: DMSO | log2 fold change | -0.11
Cl.Fc1ccc(Nc2nc(NCC3CCCO3)c3ccccc3n2)cc1 (stereo not shown) | Renilla luciferase reporter mRNA | in vitro translation, inhibitor | Trypanosoma cruzi translation extract | 30 µM | – | inhibition | 49.7%
O=C(O)c1ccc2c(c1)nc(Nc1ccccc1)c1ccncc12 | DYRK and HIPK kinases | enzyme activity, inhibitor, eight-kinase enzymatic panel | – | 1 µM, percent of control below 10 | – | number of kinases inhibited | 3
Oc1ccccc1-c1n[nH]cc1-c1ccnc2ccccc12 | KSP1 (Candida albicans) | kinase binding, MIB/MS competition | Candida albicans lysate | 1 µM | reference: DMSO | log2 fold change | -0.1

Excerpt of the above:
Structure (SMILES) | tested on | assay | test system | setting | scale | endpoint | value
Fc1ccccc1Nc1nc(NCC2CCCO2)c2ccccc2n1 (stereo not shown) | Renilla luciferase reporter mRNA | in vitro translation, inhibitor | Trypanosoma cruzi translation extract | 10 µM | – | inhibition | 8.8%
